Results from different studies.
A part holds a random share of what one study measured. Positions count from the first letter of the parent shown.

Series 1
Target: FOSL1, bZIP domain (human)
Method: DHFR protein complementation
Medium: yeast
Notes: single substitutions, most at no-binding floor
Reference: wild-type JUN-FOS pair
Reading: higher = stronger binding
Starting sequence: JUN, bZIP domain (human); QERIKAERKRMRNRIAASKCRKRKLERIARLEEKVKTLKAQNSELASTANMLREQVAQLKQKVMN; partner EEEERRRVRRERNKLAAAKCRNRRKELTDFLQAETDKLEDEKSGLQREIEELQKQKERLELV
| Change | binding fitness [natural log] |
| --- | --- |
| K39A | -0.866 |
| Q41Y | -1.4 |
| I28N | -0.747 |
| L52G | -1.42 |
| E32Q | -0.467 |
| A29N | -0.599 |
| M51V | -0.412 |
| Q55I | -0.503 |
| V56F | -1.37 |
| A49L | -0.432 |
| L38W | -1.33 |
| N42F | -1.35 |
| A49V | -0.495 |
| Q41P | -1.26 |
| A57N | -0.36 |
| L45A | -1.2 |
| A49S | -1.14 |
| R30V | -0.119 |
| L59S | -1.16 |
| Q41C | -1.45 |
| A57Q | -0.542 |
| E54Y | -0.628 |
| A46M | -0.42 |
| E32F | -0.769 |
| A49I | -0.866 |

Series 2
Target: Ras GTPase-activating protein-binding protein 1, RRM domain (G3BP1, Homo sapiens, UniProt Q13283)
UniProt Q13283, sequence (whole entry, looked up): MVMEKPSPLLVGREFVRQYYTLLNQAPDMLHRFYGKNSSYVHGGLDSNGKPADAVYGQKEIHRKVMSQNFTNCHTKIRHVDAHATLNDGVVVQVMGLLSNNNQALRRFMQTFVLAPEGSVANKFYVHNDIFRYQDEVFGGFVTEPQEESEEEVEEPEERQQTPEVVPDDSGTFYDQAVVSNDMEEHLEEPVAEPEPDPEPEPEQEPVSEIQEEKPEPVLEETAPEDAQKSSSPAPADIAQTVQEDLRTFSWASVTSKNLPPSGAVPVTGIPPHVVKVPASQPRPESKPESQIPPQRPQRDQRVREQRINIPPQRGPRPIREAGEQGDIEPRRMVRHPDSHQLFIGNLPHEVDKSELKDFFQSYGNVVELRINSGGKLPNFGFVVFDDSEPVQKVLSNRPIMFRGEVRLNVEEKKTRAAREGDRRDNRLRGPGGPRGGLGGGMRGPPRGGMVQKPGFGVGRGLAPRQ
Method: RNA Bind-n-Seq
Form: RNA
Medium: in vitro
Concentration: 1 µM
Notes: whole 134-nt RNA, ends assumed
With: 150 mM KCl
Reference: input library
Reading: higher = stronger binding
| Sequence | log2 enrichment |
| --- | --- |
| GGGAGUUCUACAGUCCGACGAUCCACAGACAACACGCACCCACACAGACACAGAGGGAAGGGGUUGGGAUGGGGACAGGGUGCACAGCAGGGCGGGGUAGGUCCCCAGCCCCUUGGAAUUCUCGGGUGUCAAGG | -0.293 |
| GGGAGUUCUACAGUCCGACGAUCUCAAGUCCUGUGCUACACAUCGUAUGUACCGAAUCGGGUUUUUGGGAGGGAGGGAAAGUAUUAUGUUACGCCGUUCGGAUCUGCACUUCCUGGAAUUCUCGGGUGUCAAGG | 0.395 |
| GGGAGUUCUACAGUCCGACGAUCCAAGUCCUGUGCUACACAUCGUAUGUACCGAAUCGGGAGGGUGGGUUUUUUUGGGAAAGUAUUAUGUUACGCCGUUCGGAUCUGCACUUCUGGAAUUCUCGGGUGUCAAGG | 0.668 |
| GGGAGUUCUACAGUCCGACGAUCCUCAAGUCCUGUGCUACACAUCGUAUGUACCGAAUCGGGUUUGGGAGGGUGGGAAAGUAUUAUGUUACGCCGUUCGGAUCUGCACUUCCAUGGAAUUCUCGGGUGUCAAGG | 1.02 |
| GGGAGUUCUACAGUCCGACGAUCAAGUCCUGUGCUACACAUCGUAUGUACCGAAUCGGGUUUUUUUGGGUUUGGGAGGGAAAGUAUUAUGUUACGCCGUUCGGAUCUGCACUUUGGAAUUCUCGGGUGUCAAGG | 0.247 |
| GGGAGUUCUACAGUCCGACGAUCCACAGACAACACGCACCCACACAGCCACAGAGGGAAGGGGUUGGGAUGGGGACAGGGUGCACAGCAGGGCGGGGUAGGACCCCAGCCCCUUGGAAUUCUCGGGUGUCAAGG | 0.123 |
| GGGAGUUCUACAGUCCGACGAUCUCCUGUGCUACACAUCGUAUGUACCGAAUCGGCCCCCCCGGCCCCCCCGGCCCCCCCGGAAAGUAUUAUGUUACGCCGUUCGGAUCUGCAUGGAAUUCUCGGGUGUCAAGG | -0.749 |
| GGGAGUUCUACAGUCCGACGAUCUCCUGUGCUACACAUCGUAUGUACCGAAUCAAACCCCCAAAUUUUUAAACCCCCCCAAAAAAGUAUUAUGUUACGCCGUUCGGAUCUGCAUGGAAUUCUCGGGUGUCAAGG | -0.15 |
| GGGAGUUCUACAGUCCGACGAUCUGGGAGGUGGAUUUUGUUUAUUUUUUUAGCUCAUUUCCAGGGGUGGGGAUUUUUUUUUAAUAUGUGUCAUGAAUAAAGUUGUUUUUGAAAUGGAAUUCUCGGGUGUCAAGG | 1.4 |

Series 3
Target: CCNE2, cyclin fold, Cln2 fusion (human)
Method: yeast growth competition, sequencing
Medium: yeast
Notes: weak parent motif
Reference: not given
Reading: higher = stronger binding
Starting sequence: PKN2 docking peptide (human); VSAVQKLDFSDTM
| Change | normalised enrichment score |
| --- | --- |
| A3E | -0.297 |
| D11W | 0.405 |
| A3H | 0.634 |
| D8S | 0.471 |
| A3Q | 0.0633 |
| K6Y | -0.736 |
| V1Q | 0.311 |
| S2P | -0.0347 |
| M13Q | -0.129 |
| Q5A L7A | 0.167 |
| M13G | -0.0305 |
| S2L | -0.231 |
| A3I | 0.35 |
| K6M | 0.403 |
| K6S | 0.176 |
| V4D | -0.503 |
| S2A | 0.587 |
| K6A | 0.208 |
| M13S | 0.618 |

Series 4
Target: RNA binding protein fox-1 homolog 2, RRM domain, GST-SBP tag (RBFOX2, Homo sapiens, UniProt O43251-10, residues 100-194)
Method: RNA Bind-n-Seq
Form: RNA
Medium: in vitro
Concentration: 365 nM
Notes: natural RNA segment, single round, ends assumed
Reference: no-protein control
Reading: higher = stronger binding
Construct (chain): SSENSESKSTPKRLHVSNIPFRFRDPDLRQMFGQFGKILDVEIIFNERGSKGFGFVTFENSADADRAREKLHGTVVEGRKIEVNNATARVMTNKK
| Sequence | RBNS enrichment (R) |
| --- | --- |
| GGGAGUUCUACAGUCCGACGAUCUUGUAAAAGGACACCUUCACUGAAGCAAGUCGGAAAGUACAAUGAAAAUAAAUAUUUUUGGUAUUUAUUUAUGAAAUAUUUGAACAUUUUUUCAAUAAUUCCUUUUUACUUGGAAUUCUCGGGUGCCAA | 0.484 |
| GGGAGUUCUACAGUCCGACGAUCAACAAGUAGGAGCAGCAACUAGCUAAAGAGUAGAAAGAAGCUUCCCUUAUUGUGGGUGAUGAGGCGGUGCCUAAAAACCACAUAUAUAUAAUCCCCUGGGUAUUACAUAUUGGAAUUCUCGGGUGCCAA | 0.322 |
| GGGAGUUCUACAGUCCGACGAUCCACACUUUGGGCAGAAAUAAGUCACGAUCAUGAAGGAUGGACUGCCUGUCUCACCUGUCCCACAGAACCUAACCUAAGCUAGCUAGUGUUGUGGAGAUGAGAUUUGCAGUUGGAAUUCUCGGGUGCCAA | 0.587 |
| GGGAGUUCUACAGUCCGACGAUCUGCCCCUCCUGUGCAGAAGGGAGCCUGCAUCCCUCCCUUCCUUUCUCUUACUGCCAUAGGAAAUUAUUUUAGGGGUUGGAGGUGGGACAAGCAGGCUUGUUUCCACCAAUUGGAAUUCUCGGGUGCCAA | 0.479 |
| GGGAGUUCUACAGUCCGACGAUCCGUUCCUCACUUUUCCCUUUUCAUUCCCACCCCCUAGACUUUGAUUUUACGGAUAUCUUGCUUCUGUUCCCCAUGGAGCUCCGAAUUCUUGCGUGUGUGUAGAUGAGGGGUGGAAUUCUCGGGUGCCAA | 0.999 |
| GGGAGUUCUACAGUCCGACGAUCUCUCAAAAGACUGGCUUAAUUGGAAUAAAAUAGCUUUUUUUUUUUAAGUGUCCCAAAGAUAAGAUAUCUUGGGGUCCACCAUGAGCUUCCAGUUUCAGCCGAGGCAGCAGUGGAAUUCUCGGGUGCCAA | 0.441 |
| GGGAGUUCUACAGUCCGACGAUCUAACCUUUCCAGUAUUCUGUUUCACGCUUAGAUGGAAAUGUAUCUUAUGAAUAGAGACAUAUUAAAAUAAUGUUUACAUCUUAGAAAAAACAUAGAUAGUGCUAGUAAUAUGGAAUUCUCGGGUGCCAA | 0.678 |
| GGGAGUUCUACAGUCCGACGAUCUUGUGGAAUUUAAGAAAUACAUUUUGUGUGCAUAUUGUUUCAUAGCAAGAAUUGGUUGCAAAAAAAUGCUUUAUUUUUGAACAAUGCUUGGAAAUAUUAUGUGACUUUUUUGGAAUUCUCGGGUGCCAA | 0.621 |

For quick reference, copied from above (series 1):
| Change | binding fitness [natural log] |
| --- | --- |
| A49L | -0.432 |
| L38W | -1.33 |
| N42F | -1.35 |
| A49V | -0.495 |
| Q41P | -1.26 |
